Experimental data gathered from unrelated publications.
A part holds a random share of what one study measured.

Set 1
Target: Histone acetyltransferase KAT6A, winged helix 2, GST fusion (KAT6A, Homo sapiens, UniProt Q92794, residues 85-181)
Method: protein binding microarray
Form: double-stranded DNA, one strand shown
Sample: in vitro
Concentration: not given
Notes: 8-mer, flanks averaged, mean of 2 arrays, mostly near background
Relative to: not given
Direction: higher = stronger binding
Residues (chain): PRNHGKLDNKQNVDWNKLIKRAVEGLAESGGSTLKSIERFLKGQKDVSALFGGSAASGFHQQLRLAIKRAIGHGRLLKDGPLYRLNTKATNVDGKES
`AATGCTGC` gave an E-score of -0.0508.
With `ACAATCTA` the E-score was 0.023.
For `ACACTTAT`, the E-score was -0.235.
`GTTATGGA` gave an E-score of -0.0326.
With `CCATAAGA` the E-score was -0.0559.
With `GGTGAGAC` the E-score was -0.124.
With `AACGCTAA` the E-score was -0.00515.
With `AGTCACAT` the E-score was -0.164.
With `GCTCAGTA` the E-score was 0.0742.
`CTCCTTTA` has an E-score of 0.0999.
For `GTATGCAA`, the E-score was 0.0749.

Set 2
Target: Centromere-binding protein 1, full length, His-tagged (CBF1, Saccharomyces cerevisiae, UniProt P17106, residues 1-351)
Chain of UniProt P17106 (whole entry, looked up): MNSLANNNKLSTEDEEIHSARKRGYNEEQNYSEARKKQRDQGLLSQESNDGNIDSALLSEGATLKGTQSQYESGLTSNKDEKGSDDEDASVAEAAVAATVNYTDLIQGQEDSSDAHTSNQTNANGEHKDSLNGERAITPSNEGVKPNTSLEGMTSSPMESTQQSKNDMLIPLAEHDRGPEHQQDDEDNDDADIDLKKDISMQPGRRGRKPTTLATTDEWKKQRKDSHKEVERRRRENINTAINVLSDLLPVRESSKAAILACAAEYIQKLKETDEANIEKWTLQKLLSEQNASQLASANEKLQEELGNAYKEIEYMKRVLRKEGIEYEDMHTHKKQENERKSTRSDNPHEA
Method: competition protein-binding microarray
Form: double-stranded DNA, one strand shown
Sample: in vitro
Concentration: 2 µM
Notes: whole 60-bp probe, lowest competitor level
Together with: Pho4 competitor, 0.05 µM
Direction: higher = stronger binding
The fluorescence intensity of `ACCTACCCGCTTCATCACATGAACACCGCTTCCTGAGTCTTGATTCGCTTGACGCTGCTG` is reported as 222 a.u.
The fluorescence intensity of `GTCTTGTCTCATTGTCACACAACTTTCCCCACTTCAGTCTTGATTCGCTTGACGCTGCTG` is reported as 84.8 a.u.
With `TTCCCATTGACGTACAAGGTGATGCTGATCGTTCGGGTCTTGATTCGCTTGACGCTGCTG` the fluorescence intensity was 67.9 a.u.
`GAATGAGTTACTGGTCCCGTGAAGCGATTGACACAAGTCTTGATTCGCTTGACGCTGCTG` has a fluorescence intensity of 303 a.u.
With `CTTTCCCGATCTTGTCACCTCACTTTAGCACATTTGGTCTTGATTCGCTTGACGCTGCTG` the fluorescence intensity was 74.4 a.u.
With `CTAAGGCTGATGCTCAACGTGAAAAGGCTTTGAACGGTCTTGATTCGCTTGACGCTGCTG` the fluorescence intensity was 84.6 a.u.
`CTAACGAAGGTTTGACAGGTGGGTGACAAGCCAAGTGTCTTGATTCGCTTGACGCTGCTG` gave a fluorescence intensity of 70.3 a.u.
`AATATGCACTGCAACTTCGTGCTTTATTTCAATATCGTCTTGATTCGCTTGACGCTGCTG` has a fluorescence intensity of 80.1 a.u.
`GCCCGGTCGTTTGGATGCGTGGGTAGTATAGTTTCTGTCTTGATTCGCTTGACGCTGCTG` gave a fluorescence intensity of 63 a.u.

Set 3
Target: Sal-like protein 4, full length isoform B (SALL4, Homo sapiens, UniProt Q9UJQ4-2, residues 1-616)
Method: universal PBM
Form: double-stranded DNA, one strand shown
Sample: in vitro
Concentration: not given
Notes: 8-mer, flanks averaged, mean of replicates
Direction: higher = stronger binding
`GGCTGCGA` has an E-score of -0.145.
The E-score of `CAGAGCCG` is reported as -0.236.
The E-score of `CTGGTGAC` is reported as -0.238.
`GCTGGACC` has an E-score of -0.28.
With `GGTTTTAC` the E-score was 0.0192.
With `GTAAAGTA` the E-score was 0.284.
The E-score of `CAGTCGGC` is reported as -0.312.
The E-score of `CAGACTCC` is reported as -0.274.
With `AGACCAGC` the E-score was -0.355.

Single results of other studies
With `PhoQ, residues 284 288 289 292 302 303 TNSAEL` the fold induction was 1.19 (PhoP, residues 12 14 15 18 19 NQFFI (Escherichia coli, UniProt P23836); Sort-seq, measured: YFP reporter; E. coli; PhoQ-PhoP variant library, together with: 10 µM Mg2+; relative to: high Mg2+ state, higher = stronger signaling).
